# Measured values of several laboratories.
# Each numbered part is a random draw from the data of one study; scales do not carry over between parts. Changes are numbered by the printed parent chain.

# Series 1
# Target: Fragile X messenger ribonucleoprotein 1, C-terminal low-complexity region (Fmr1, Mus musculus, UniProt P35922)
# Technique: RNA Bind-n-Seq
# Form: RNA
# Medium: in vitro
# Concentration: 200 nM
# Notes: whole 134-nt RNA, ends assumed
# Together with: 150 mM LiCl
# Relative to: input library
# Direction: higher = stronger binding
# All molecules: 7-deaza-guanosine replaces G
# Constant ends, left off below: GGGAGUUCUACAGUCCGACGAUC … UGGAAUUCUCGGGUGUCAAGG
Sequence,log2 enrichment
GUCCUGUGCUACACAUCGUAUGUACCGAAUCGGGGUUUUUGGGUUUUUGGGUUUUUGGGAAAGUAUUAUGUUACGCCGUUCGGAUCUGCA,-0.803
AGUCCUGUGCUACACAUCGUAUGUACCGAAUCGGGAAAAAGGGAGGGAAAAAAAGGGAAAGUAUUAUGUUACGCCGUUCGGAUCUGCACU,-0.582
CAAGUCCUGUGCUACACAUCGUAUGUACCGAAUCGGGUGGGUUUUUUUGGGAGGGAAAGUAUUAUGUUACGCCGUUCGGAUCUGCACUUC,0.149
CCUCAAGUCCUGUGCUACACAUCGUAUGUACCGAAUCGGGUUGGUUGGUUGGAAAGUAUUAUGUUACGCCGUUCGGAUCUGCACUUCCAG,-0.458
UGGCCCUGGUGGCAUGCGGGGAGGAAGAGGUGGCCUCAUGGAUCGUGGUGGUCCCGGUGUAAUGUUCAGAGGUGGCCGUGGUGGAGACAG,-0.496
CACAGACAACACGCACCCACACAGACACAGAGGGAAGGGGUUGGGAUGGGGAGAGGGUGCACAGCAGGGCGGGGUAGGACCCCAGCCCCU,0.299
UCCUGUGCUACACAUCGUAUGUACCGAAUCAAACCCCCAAACCCCCCCAAAUUUUUAAAAAAGUAUUAUGUUACGCCGUUCGGAUCUGCA,1.81
CACAGACAACACGCACCCACACAGACACAGAGGGAGGGGGUUGGGAUGGGGACAGGGUGCACAGCAGGGCGGGGUAGGACCCCAGCCCCU,-0.429
AAGUCCUGUGCUACACAUCGUAUGUACCGAAUCGGGUUUUUGGGAAAGGGUUUGGGAAAGUAUUAUGUUACGCCGUUCGGAUCUGCACUU,-3
CAAGUCCUGUGCUACACAUCGUAUGUACCGAAUCGGAAAAAGGUGGAAAAAAAGGAAAGUAUUAUGUUACGCCGUUCGGAUCUGCACUUC,-0.952
UGGCCCUGGUGGCAUGCGGGGAGGAAGAGGUGGCCUCAUGGAUCGUGGUGGUCCCGGUGGAAUGUUCAGAGGUGGCCGUGGUGGAGAUAG,-0.111

# Series 2
# Target: TAR DNA-binding protein 43, full length, His tag (TARDBP, Homo sapiens, UniProt Q13148, residues 1-414)
# Technique: RNA Bind-n-Seq
# Form: RNA
# Medium: in vitro
# Concentration: 20 nM
# Notes: 6-mer, flanks averaged, single round
# Together with: 150 mM KCl
# Relative to: input library
# Direction: higher = stronger binding
Sequence,6-mer enrichment (R)
UAUGGA,0.89
CAGAUC,0.614
GGAGAA,1.69
UGAAUU,0.641
UUGGGA,1.75
CCUAUC,0.574
UUAUUC,0.571
CAGCGU,0.874
GCGCUG,1.37
CGGAGC,1.39
GGGUGG,8.77
AGCGGC,1.47
AGCAAA,0.696
GGGCUU,1.72
CCUUUU,0.694
CUCCAU,0.588
UUGGUG,1.29
CCCCCU,0.69
UCCUCA,0.559
CGCUAC,0.642
GCCGGU,1.3
AACGAC,0.607
CCCCAG,0.713
CUUCCC,0.593
UGUCGU,0.757

# Series 3
# Target: Interferon regulatory factor 3, full length, phosphomimetic (IRF3, Homo sapiens, UniProt Q14653, residues 1-427, S386D/S396D/S398D/S402D/T404D/S405D)
# UniProt Q14653, sequence (whole entry, unmodified, looked up): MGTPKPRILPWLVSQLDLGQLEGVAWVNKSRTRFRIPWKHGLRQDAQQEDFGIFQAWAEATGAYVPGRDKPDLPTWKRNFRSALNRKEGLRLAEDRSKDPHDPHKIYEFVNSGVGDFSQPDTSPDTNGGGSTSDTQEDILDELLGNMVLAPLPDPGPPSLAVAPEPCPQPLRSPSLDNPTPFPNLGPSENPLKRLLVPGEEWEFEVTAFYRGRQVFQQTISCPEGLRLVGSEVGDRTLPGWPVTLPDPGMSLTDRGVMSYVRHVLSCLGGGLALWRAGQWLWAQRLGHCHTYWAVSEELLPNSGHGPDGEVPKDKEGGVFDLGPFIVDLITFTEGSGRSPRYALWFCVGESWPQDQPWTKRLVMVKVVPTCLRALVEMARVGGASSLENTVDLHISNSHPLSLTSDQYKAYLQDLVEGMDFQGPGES
# Technique: protein-binding microarray
# Form: double-stranded DNA, one strand shown
# Medium: in vitro
# Concentration: 2540 nM top
# Notes: 60-bp whole probe
# Together with: salmon DNA 0.4 mg/ml
# Relative to: random background probes
# Direction: higher = stronger binding
# Constant ends, left off below: GCCTAGCAC … GTCTTGATTCGCTTGACGCTGCTG
Sequence,fitted relative affinity
TTAGGTATCCACTTTCGGTTAGTGCTA,3.45 z-score
AAACAAATAAGCCTTACTTGGTGCTAG,0.285 z-score
TTAGAAGTGGGGTATCGATTAGTGCTA,-0.193 z-score
CTGTTCTGCAGACTTCTGTCGTGCTAG,1.22 z-score
TTAGATATCAGTCTAGATTAGTGCTAG,0.478 z-score
GACGGACTGGGGTTCCGGGACGTGCTA,-0.861 z-score
GACGATTTCAGTTCAGAGACGTGCTAG,2.39 z-score
TTTTTTCTACTTCTCTTTTGGTGCTAG,2.67 z-score
TTAGGTATCGGTCCCGGTTAGTGCTAG,2.15 z-score
TTAGGTATCGATACTGGGTTAGTGCTA,1.81 z-score
TTAGGACTGGGGACTGGGGTAGTGCTA,-1.01 z-score
TTAGGTTTTCTTTCCCTTTAGTGCTAG,5.14 z-score
TCACCTGTCCATTCCTTACTGTGCTAG,1.46 z-score
TTAGGACTGAGTATCGATTAGTGCTAG,0.139 z-score
GACGATTTCAGTTCCGACACGTGCTAG,2.98 z-score
TCACCCATGAGTCTCAAACTGTGCTAG,-0.299 z-score
GAAGGACTGCTTCTCCTGACGTGCTAG,-0.295 z-score
GACGATATCGGGTATCGTGACGTGCTA,0.0879 z-score
TAGTTTTCAATTTTTGCATCGTGCTAG,2.39 z-score
CTAGGTATCGGTTTCGGTTAGTGCTAG,8.81 z-score
GACGATTTCGGGTATGGAGACGTGCTA,1.72 z-score
TCATTTTTCTCCTATTTAACTGTGCTA,2.6 z-score
TGAACTAGCGGGTCTTGCAGTGTGCTA,-0.595 z-score

# Series 4
# Target: CCNA1, cyclin fold, Cln2 fusion (human)
# Technique: yeast growth competition, sequencing
# Medium: yeast
# Notes: weak parent motif
# Relative to: not given
# Direction: higher = stronger binding
# Parent: SCAPER docking peptide (human); SNARRSLNFGGST
Change,normalised enrichment score
N2K,0.47
F9P,0.243
S6W,0.526
L7M,0.207
S12P,0.756
A3E,0.526
A3P,0.589
G10R,0.519
S12R,0.145
R4N,0.289
A3D,0.217
G10M,0.472
S12T,0.646
R5H,0.202
F9R,0.19
G11Q,0.706
A3L,0.31
A3Y,0.353
N2H,0.638
G11L,0.421
N2L,0.505
G10I,0.389
T13V,0.808
N2G,0.875
L7Y,0.326

# Series 5
# Target: Histone acetyltransferase KAT6A, both winged helices, GST fusion (KAT6A, Homo sapiens, UniProt Q92794, residues 1-181)
# Technique: protein binding microarray
# Form: double-stranded DNA, one strand shown
# Medium: in vitro
# Concentration: not given
# Notes: 8-mer, flanks averaged, mean of 2 arrays, mostly near background
# Relative to: not given
# Direction: higher = stronger binding
# Target sequence (chain): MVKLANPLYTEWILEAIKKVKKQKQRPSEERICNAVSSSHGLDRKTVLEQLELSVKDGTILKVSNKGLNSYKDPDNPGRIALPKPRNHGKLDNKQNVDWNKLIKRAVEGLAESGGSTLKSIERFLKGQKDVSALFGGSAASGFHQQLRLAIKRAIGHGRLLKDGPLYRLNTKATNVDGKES
Sequence,E-score
TCTACTCA,-0.0647
AAGCTTGC,-0.00762
AACTGCCT,-0.212
ACCTAGCC,-0.203
ATGACGCG,0.322
CTCCACGA,-0.106
AAGTAGAA,-0.168
GCGACTTA,0.203
CGCTGCCC,0.143
AATTGAGA,-0.0308
GCACCTCA,-0.0862
TCCACTCA,-0.225
CCGAGGGC,0.086
ACAGACTA,-0.139
ACGAATGC,0.0143
AAGACGTC,0.0352
GTTAAGTA,-0.165
CACCCGGG,0.226
AGCAAGGC,-0.0214
CTCTCTAA,-0.18

# Series 6
# Target: Prothrombin, mature alpha-thrombin (F2, Homo sapiens, UniProt P00734)
# Technique: aptamer microarray, sandwich
# Form: DNA with 2'F-ANA
# Medium: in vitro
# Concentration: 200 nM
# Notes: whole 15-mer aptamer, many near background
# Together with: Cy3 exosite-II aptamer, 400 nM
# Direction: higher = stronger binding
# Sequence: GGTTGGTGTGGTTGG
Modification,mean fluorescence intensity [a.u.]
2'F-ANA at 1 2 3 4 7 9 11 13 15,280
2'F-ANA at 1 2 8 10 12 13,62.2
2'F-ANA at 1 9 11 14 15,51.6
2'F-ANA at 8 9 10,219
2'F-ANA at 3 5 6 11,101
2'F-ANA at 1 2 5 6 7 13 15,52.1
2'F-ANA at 1 2 4 7 8 9 11 12 13 14 15,57.8
2'F-ANA at 1 3 4 8 11 12 13 14,87.1
2'F-ANA at 1 3 4 5 9 10 13 15,86.3
2'F-ANA at 1 3 5 6 7 9 13 14,45.7
2'F-ANA at 1 2 3 6 11 12 14,75.7
2'F-ANA at 5 6 8 9 10 11 14,48.2
2'F-ANA at 2 3 7 12 13 14,435
2'F-ANA at 1 2 5 7 8 10 11 13,67.2
2'F-ANA at 3 4 5 8 10 11 12 14 15,79.1
2'F-ANA at 3 4 5 6 12 13 15,117

# Some of these lines once more (series 5):
Sequence,E-score
ATGACGCG,0.322
CTCCACGA,-0.106
AAGTAGAA,-0.168
GCGACTTA,0.203
CGCTGCCC,0.143
AATTGAGA,-0.0308
GCACCTCA,-0.0862
TCCACTCA,-0.225
CCGAGGGC,0.086
ACAGACTA,-0.139
ACGAATGC,0.0143
AAGACGTC,0.0352
GTTAAGTA,-0.165
